# Assay results gathered from unrelated publications.
# Protocols differ between the studies behind these lines.
# Organism: Klebsiella pneumoniae
Compound,test,system,conditions,MIC
CC1(C)C(NC(=O)C(=NOC2(C(=O)O)CCC2)c2csc(N)n2)C(=O)N1OS(=O)(=O)O (centres unmarked),agar dilution,"2146, NDM-1",,2 µg/mL
CC[C@H](C)[C@H](NC(=O)[C@H](CCCCN)NC(=O)[C@H](CCCCN)NC(=O)[C@H](Cc1c[nH]c2ccccc12)NC(=O)[C@H](Cc1ccccc1)NC(=O)[C@H](CCCCN)NC(=O)[C@H](CCCCN)NC(=O)[C@H](Cc1ccccc1)NC(=O)[C@H](CCCNC(=N)N)NC(=O)[C@@H](N)CCCCN)C(=O)N[C@@H](CCCCN)C(=O)N[C@@H](CC(N)=O)C(=O)N[C@@H](CO)C(=O)N[C@H](C(=O)N[C@@H](CCCCN)C(=O)N[C@@H](CCCCN)C(=O)N[C@@H](CCCNC(=N)N)C(=O)N[C@@H](C)C(=O)N[C@@H](CCCCN)C(=O)N[C@@H](CCCCN)C(=O)N[C@@H](Cc1ccccc1)C(=O)N[C@@H](Cc1ccccc1)C(=O)N[C@@H](CCCNC(=N)N)C(=O)N[C@@H](CCCCN)C(=O)N1CCC[C@H]1C(=O)N[C@@H](CCCNC(=N)N)C(=O)N[C@H](C(=O)N[C@H](C(=O)N[C@@H](C)C(=O)N[C@H](C(=O)N[C@@H](CO)C(=O)N[C@H](C(=O)N1CCC[C@H]1C(=O)N[C@@H](Cc1ccccc1)C(=O)O)[C@@H](C)CC)C(C)C)[C@@H](C)CC)C(C)C)C(C)C,broth microdilution,polymyxin-resistant,,1.56 to 3.12 µg/mL
N=C(N)NCCC[C@@H]1NC(=O)[C@H](CCCNC(=N)N)NC(=O)[C@@H](CCCNC(=N)N)NC(=O)[C@@H](CCCNC(=N)N)NC(=O)[C@@H](C(c2ccccc2)c2ccccc2)NC(=O)[C@@H](Cc2c[nH]c3ccccc23)NC(=O)[C@@H](C(c2ccccc2)c2ccccc2)NC1=O,,"1188718, multidrug-resistant",,> 64 µg/mL
CC[C@H](C)[C@H](NC(=O)[C@H](CCCNC(=N)N)NC(=O)[C@@H](NC(=O)[C@@H](NC(=O)[C@H](CCCNC(=N)N)NC(=O)[C@H](CCCCN)NC(=O)[C@H](Cc1ccccc1)NC(=O)[C@H](CCCNC(=N)N)NC(=O)[C@H](CCCCN)NC(=O)[C@@H](NC(=O)[C@@H](N)CCCCN)[C@@H](C)CC)[C@@H](C)CC)C(C)C)C(=O)N[C@@H](CCCCN)C(=O)N[C@@H](Cc1ccccc1)C(=O)N[C@@H](CC(C)C)C(=O)N[C@@H](CCCNC(=N)N)C(=O)N[C@H](C(=O)N[C@H](C(=O)N[C@@H](CCCNC(=N)N)C(=O)N[C@@H](CCCNC(=N)N)C(N)=O)C(C)C)C(C)C,broth microdilution,10145,,7.5 µg/mL
CC[C@H](C)[C@H](NC(=O)[C@H](C)NC(=O)[C@@H](NC(=O)[C@H](CC(=O)O)NC(=O)[C@H](CCCCN)NC(=O)[C@H](CO)NC(=O)[C@@H](NC(=O)[C@H](CC(N)=O)NC(=O)[C@H](C)NC(=O)[C@@H](NC(=O)[C@H](CCC(=O)O)NC(=O)[C@H](CCCCN)NC(=O)[C@@H](NC(=O)[C@@H](NC(=O)[C@H](Cc1c[nH]cn1)NC(=O)[C@H](CCCCN)NC(=O)[C@@H](NC(=O)[C@H](CCCCN)NC(=O)[C@H](CCCCN)NC(=O)[C@@H](NC(=O)[C@H](CC(C)C)NC(=O)[C@H](CCCCN)NC(=O)[C@H](CC(N)=O)NC(=O)[C@H](Cc1ccccc1)NC(=O)[C@H](CCCNC(=N)N)NC(=O)[C@H](CCCCN)NC(=O)[C@H](CCCNC(=N)N)NC(=O)[C@H](Cc1ccccc1)NC(=O)CN)C(C)C)C(C)C)[C@@H](C)O)[C@@H](C)CC)[C@@H](C)O)C(C)C)C(C)C)C(=O)N[C@H](C(=O)N[C@@H](C)C(=O)NCC(=O)N[C@@H](CO)C(=O)NCC(=O)N[C@H](C(=O)N[C@@H](C)C(=O)N[C@H](C(=O)NCC(=O)N[C@@H](C)C(=O)N[C@@H](C)C(=O)N[C@@H](CCSC)C(N)=O)C(C)C)C(C)C)C(C)C,broth microdilution,"RKI 93/10, CAMHB with 10% mouse serum",150 mM NaCl,0.5 µg/mL
C=CCO/N=C(\C(=O)N[C@@H]1C(=O)N(OS(=O)(=O)O)C1(C)C)c1nsc(N)n1,agar dilution,"09-20, NDM-1",,2 µg/mL
CCCCCCCC(=O)N[C@@H](CCN)C(=O)N[C@H](C(=O)N[C@@H](CCN)C(=O)N[C@H]1CCNC(=O)[C@H]([C@@H](C)O)NC(=O)[C@H](CCN)NC(=O)[C@H](CCN)NC(=O)[C@H](Cc2ccccc2)NC(=O)[C@@H](CCC(C)C)NC(=O)[C@H](CCN)NC1=O)[C@@H](C)O,broth microdilution,"ATCC 13883, colistin-susceptible",,0.5 to 4 µg/mL
CC[C@H](C)[C@H](NC(=O)[C@@H](CCCNC(=N)N)NC(=O)[C@H](CCCNC(=N)N)NC(=O)[C@@H]1CCCN1C(=O)[C@@H]1CCCN1C(=O)[C@H](CCCNC(=N)N)NC(=O)[C@@H]1CCCN1C(=O)[C@H](CCCNC(=N)N)NC(=O)[C@@H]1CCCN1C(=O)[C@H](CC(C)C)NC(=O)[C@H](Cc1ccc(O)cc1)NC(=O)[C@@H]1CCCN1C(=O)[C@H](Cc1ccc(O)cc1)NC(=O)[C@H](CCCCN)NC(=O)[C@H](CC(=O)O)NC(=O)[C@@H](N)C(C)C)C(=O)N[C@@H](Cc1ccc(O)cc1)C(=O)N[C@@H](CC(N)=O)C(=O)N[C@H](CCCNC(=N)N)C(N)=O,broth microdilution,DSM 681,"18 h, 37 °C, 25% MHB2",16 µg/mL
COc1ccc2ccc(O)c(/C=N/[C@H]3CCCC[C@H]3/N=C/c3cc(C)ccc3O)c2c1,"bacterial growth, broth microdilution",carbapenem-resistant clinical isolate,,> 40 µM
N=C(N)NCCC[C@@H]1NC(=O)[C@H](CCCNC(=N)N)NC(=O)[C@H](CCCNC(=N)N)NC(=O)[C@@H](CCCNC(=N)N)NC(=O)[C@H](Cc2ccc3ccccc3c2)NC(=O)[C@H](Cc2ccc3ccccc3c2)NC(=O)[C@H](Cc2ccc3ccccc3c2)NC1=O,,"1188718, multidrug-resistant",,> 64 µg/mL
CC[C@H](C)[C@H](NC(=O)[C@@H](CCCNC(=N)N)NC(=O)[C@H](CCCNC(=N)N)NC(=O)[C@@H]1CCCN1C(=O)[C@@H]1CCCN1C(=O)[C@H](Cc1c[nH]c2ccccc12)NC(=O)[C@@H]1CCCN1C(=O)[C@H](CCCNC(=N)N)NC(=O)[C@@H]1CCCN1C(=O)[C@H](CC(C)C)NC(=O)[C@H](Cc1ccc(O)cc1)NC(=O)[C@@H]1CCCN1C(=O)[C@@H]1CCCN1C(=O)[C@H](CCCCN)NC(=O)[C@H](CC(=O)O)NC(=O)[C@@H](N)C(C)C)C(=O)N[C@@H](Cc1ccc(O)cc1)C(=O)N[C@@H](CC(N)=O)C(=O)N[C@H](CCCNC(=N)N)C(N)=O,broth microdilution,DSM 681,"18 h, 37 °C, 25% MHB2",4 µg/mL
CC[C@H](C)[C@H](NC(=O)[C@H](CCCCN)NC(=O)[C@H](CCCCN)NC(=O)[C@H](Cc1ccccc1)NC(=O)[C@H](Cc1ccccc1)NC(=O)[C@H](CCCCN)NC(=O)[C@H](CCCCN)NC(=O)[C@H](Cc1ccccc1)NC(=O)[C@H](CCCNC(=N)N)NC(=O)[C@@H](N)CCCCN)C(=O)N[C@@H](CCCCN)C(=O)N[C@@H](CCCCN)C(=O)N[C@@H](CO)C(=O)N[C@H](C(=O)N[C@@H](CCCCN)C(=O)N[C@@H](CCCCN)C(=O)N[C@@H](CCCNC(=N)N)C(=O)N[C@H](C(=O)N[C@@H](CCCCN)C(=O)N[C@@H](CCCCN)C(=O)N[C@@H](CC(C)C)C(=O)N[C@@H](Cc1ccccc1)C(=O)N[C@@H](CCCCN)C(=O)N[C@@H](CCCCN)C(=O)N1CCC[C@H]1C(=O)N[C@@H](CCCNC(=N)N)C(=O)N[C@H](C(=O)N[C@H](C(=O)N1CCC[C@H]1C(=O)N[C@H](C(=O)N[C@@H](CO)C(=O)N[C@H](C(=O)N1CCC[C@H]1C(=O)N[C@@H](Cc1ccccc1)C(=O)O)[C@@H](C)CC)[C@@H](C)CC)[C@@H](C)CC)C(C)C)C(C)C)C(C)C,broth microdilution,K1 clinical isolate,20 h,4 µg/mL
CN[C@@H]1[C@H](O)[C@H](NC)[C@H]2O[C@]3(O)[C@H](O[C@@H]2[C@H]1O)O[C@H](C)C[C@H]3NC(=O)Cc1ccc(F)cn1,"microbial growth, broth dilution",ATCC33495,,100 µg/mL
CCn1c(-c2ccc(OC)cc2)c(-c2ccc(OC)cc2)n(Cc2c(C)cc(C)cc2C)c1=[Se],broth microdilution,carbapenem-resistant BAA-1705,24 h,> 40 µM
CC[C@H](C)[C@H](NC(=O)[C@H](Cc1c[nH]c2ccccc12)NC(=O)[C@H](Cc1ccc(O)cc1)NC(=O)[C@H](CCCCN)NC(=O)[C@H](CC(C)C)NC(=O)[C@H](CO)NC(=O)[C@@H](N)Cc1ccccc1)C(=O)N[C@@H](CCCNC(=N)N)C(=O)N[C@@H](Cc1ccc(O)cc1)C(=O)N[C@@H](CCCCN)C(=O)N[C@@H](CCCNC(=N)N)C(=O)N[C@@H](CCC(N)=O)C(=O)NCC(=O)N[C@@H](C)C(=O)N[C@@H](C)C(=O)N[C@@H](CCCNC(=N)N)C(=O)N[C@@H](Cc1ccccc1)C(N)=O,broth dilution,ATCC 700603,,> 100 µM
CC[C@H](C)[C@H](NC(=O)[C@H](Cc1c[nH]c2ccccc12)NC(=O)[C@H](CCCNC(=N)N)NC(=O)[C@@H]1CCCN1C(=O)[C@H](CCCNC(=N)N)NC(=O)[C@@H]1CCCN1C(=O)[C@H](CC(C)C)NC(=O)[C@H](Cc1ccc(O)cc1)NC(=O)[C@@H]1CCCN1C(=O)[C@@H]1CCCN1C(=O)[C@H](CCCCN)NC(=O)[C@H](CC(=O)O)NC(=O)[C@@H](N)C(C)C)C(=O)N[C@@H](CCCNC(=N)N)C(=O)N[C@H](CCCNC(=N)N)C(=O)N[C@H](C(=O)N[C@@H](Cc1ccc(O)cc1)C(=O)N[C@@H](CC(N)=O)C(=O)N[C@H](CCCNC(=N)N)C(N)=O)[C@@H](C)CC,broth microdilution,DSM 681,"18 h, 37 °C, 25% MHB2",4 µg/mL
COc1ccc2ccc(O)c(/C=N/[C@H]3CCCC[C@H]3/N=C/c3ccc(F)cc3O)c2c1,"bacterial growth, broth microdilution",carbapenem-resistant clinical isolate,,> 40 µM
CC[C@H](C)[C@H](NC(=O)[C@@H](CCCNC(=N)N)NC(=O)[C@H](CCCNC(=N)N)NC(=O)[C@@H]1CCCN1C(=O)[C@@H]1CCCN1C(=O)[C@H](CCCNC(=N)N)NC(=O)[C@@H]1CCCN1C(=O)[C@H](CCCNC(=N)N)NC(=O)[C@@H]1CCCN1C(=O)[C@H](CCSC)NC(=O)[C@H](Cc1ccc(O)cc1)NC(=O)[C@@H]1CCCN1C(=O)[C@@H]1CCCN1C(=O)[C@H](CCCCN)NC(=O)[C@H](CC(=O)O)NC(=O)[C@@H](N)C(C)C)C(=O)N[C@@H](Cc1ccc(O)cc1)C(=O)N[C@@H](CC(N)=O)C(=O)N[C@H](CCCNC(=N)N)C(N)=O,broth microdilution,DSM 681,"18 h, 37 °C, 25% MHB2",4 µg/mL
COc1ccc2ccc(O)c(/C=N/[C@H]3CCCC[C@H]3/N=C/c3ccccc3O)c2c1,"bacterial growth, broth microdilution",carbapenem-resistant clinical isolate,,> 40 µM
CC1(C)[C@H](NC(=O)/C(=N\OCc2c(Cl)cccc2Cl)c2nsc(N)n2)C(=O)N1OS(=O)(=O)O,agar dilution,"09-20, NDM-1",,8 µg/mL
CCCCCCCC(=O)N[C@@H](CCN)C(=O)N[C@H](C(=O)N[C@@H](CCN)C(=O)N[C@H]1CCNC(=O)[C@H]([C@@H](C)O)NC(=O)[C@H](CCN)NC(=O)[C@H](CCN)NC(=O)[C@H](Cc2ccc(F)cc2)NC(=O)[C@@H](CC(C)C)NC(=O)[C@H](CCN)NC1=O)[C@@H](C)O,broth microdilution,"ATCC 13883, colistin-susceptible",,0.25 to 0.5 µg/mL
COc1ccc(/C=N/[C@@H]2CCCC[C@@H]2/N=C/c2c(O)ccc3ccc(OC)cc23)c(O)c1,"bacterial growth, broth microdilution",carbapenem-resistant clinical isolate,,> 40 µM
CC1(C)[C@H](NC(=O)/C(=N\OCCN)c2nsc(N)n2)C(=O)N1OS(=O)(=O)O,agar dilution,"09-20, NDM-1",,32 µg/mL

# A few entries again:
Compound,test,system,conditions,MIC
COc1ccc2ccc(O)c(/C=N/[C@H]3CCCC[C@H]3/N=C/c3cc(C)ccc3O)c2c1,"bacterial growth, broth microdilution",carbapenem-resistant clinical isolate,,> 40 µM
N=C(N)NCCC[C@@H]1NC(=O)[C@H](CCCNC(=N)N)NC(=O)[C@H](CCCNC(=N)N)NC(=O)[C@@H](CCCNC(=N)N)NC(=O)[C@H](Cc2ccc3ccccc3c2)NC(=O)[C@H](Cc2ccc3ccccc3c2)NC(=O)[C@H](Cc2ccc3ccccc3c2)NC1=O,,"1188718, multidrug-resistant",,> 64 µg/mL
CC[C@H](C)[C@H](NC(=O)[C@@H](CCCNC(=N)N)NC(=O)[C@H](CCCNC(=N)N)NC(=O)[C@@H]1CCCN1C(=O)[C@@H]1CCCN1C(=O)[C@H](Cc1c[nH]c2ccccc12)NC(=O)[C@@H]1CCCN1C(=O)[C@H](CCCNC(=N)N)NC(=O)[C@@H]1CCCN1C(=O)[C@H](CC(C)C)NC(=O)[C@H](Cc1ccc(O)cc1)NC(=O)[C@@H]1CCCN1C(=O)[C@@H]1CCCN1C(=O)[C@H](CCCCN)NC(=O)[C@H](CC(=O)O)NC(=O)[C@@H](N)C(C)C)C(=O)N[C@@H](Cc1ccc(O)cc1)C(=O)N[C@@H](CC(N)=O)C(=O)N[C@H](CCCNC(=N)N)C(N)=O,broth microdilution,DSM 681,"18 h, 37 °C, 25% MHB2",4 µg/mL
